Measured values of several laboratories.
Each line is one published result; not all experiments were run side by side.

`Cc1cc(-c2nnc(N)nc2-c2ccc(F)cc2)cc(Cl)n1` — result for “patients with treatment-related AE”: 4.8% (measured: Dizziness; other solid tumours, post-IO; oral, 100 mg once daily, all grades).
For `CNC(=O)c1cc(Oc2ccc(NC(=O)Nc3cc(C(C)(C)C)nn3-c3ccc4ncccc4c3)c(F)c2)ccn1`, “patients with musculoskeletal disorders” read 27% (patients; oral, dose not given, cycles 1 and 2, Low AUC subgroup).
For `CCOc1c([C@H](C)n2nc(C)c3c(N)ncnc32)cc(Cl)c(F)c1[C@@H]1CNC(=O)C1`, the patients was 0% (measured: QTcF change above 60 ms; previously treated B-cell malignancy; oral, 30 mg once daily, baseline QTcF ≤450 ms; reference: baseline).
Under “patients with adverse events”, `C[C@@H](c1ccc2nccn2c1)n1nnc2ncc(-c3cnn(C)c3)nc21` is recorded as 1% (measured: treatment-related grade ≥3 Pain; EGFR-mutant MET-altered NSCLC; oral, dose not given, all).
For `Cc1cc(NC2CCN(C(=O)OC3CCN(C(=O)/C=C/CN(C)C)C3)CC2)n2ncc(C(C)C)c2n1` (stereo not drawn), “patients with adverse event” read 0% (Phase I dose escalation CTCAE v4.0, measured: AST increased; patients with advanced solid tumours; dose not given, Total dosing grade 3 or higher).
`FC(F)(F)c1ccc(CNc2ccc(Cc3c[nH]c4ncc(Cl)cc34)cn2)cn1`: “patients with treatment-related adverse event” 0% (measured: skin hypopigmentation; non-TGCT solid tumour patients; oral, 1000 mg/day, grade 3 or higher).
`CNC(=O)c1ccc(-c2cnc3ncc(Cc4ccc5ncccc5c4)n3n2)cc1F`: “patients with adverse event” 0% (measured: Nausea; other cancer patients; oral, 600 mg twice daily, expansion cohort, grade 3-4).
`CC(C)C[C@H](NC(=O)CNC(=O)c1cc(Cl)ccc1Cl)B(O)O`: “patients with adverse event” 39% (measured: Arthralgia, all grades; newly diagnosed multiple myeloma patients; oral, dose not given, maintenance phase, new onset, cycle 17 or later).
For `COc1cc(Nc2ncc3c(n2)-c2ccc(Cl)cc2C(c2c(F)cccc2OC)=NC3)ccc1C(=O)O`, “patients with adverse event” read 13% (measured: increased TSH, all grades; cancer patients, phase 1/2; oral, dose not given, added: pembrolizumab).
Under “patients with adverse event”, `O=C(Nc1nc2cccc(-c3ccc(CN4CCS(=O)(=O)CC4)cc3)n2n1)C1CC1` is recorded as 0% (measured: bile reflux into stomach; rheumatoid arthritis patients; oral, 150 mg once daily, 4 weeks, any relatedness).
For `C[C@@H](Nc1cc(F)cc(F)c1)c1cc(C(=O)N(C)C)cc2c(=O)cc(N3CCOCC3)oc12`, “patients discontinuing for AE” read 0% (CTCAE v4, measured: autoimmune colitis; patients with advanced solid tumours; oral, dose not given, phase I dose finding).
`C=CC(=O)Nc1cc(Nc2nccc(-c3cn(C)c4ccccc34)n2)c(OC)cc1N(C)CCN(C)C`: “patients with treatment-related AEs” 0% (measured: Thrombocytopenia grade ≥3; EGFR-mutant MET-altered NSCLC; oral, dose not given, study).
